Assay results of several laboratories.
Lines come from different studies, so protocols differ. “And” joins repeats or separate records; there may be more than shown.
ABL1: Tyrosine-protein kinase ABL1 (ABL1, Homo sapiens, UniProt P00519)
ABL1 H396P: Tyrosine-protein kinase ABL1 (ABL1, Homo sapiens, UniProt P00519, H396P)

C[C@H]1CN(C(=O)c2cn(-c3ccnc(N)n3)c3cc(C#CC4(O)CCCCC4)ccc23)CCN1 — inhibition (ABL1; enzyme activity, inhibitor, FRET; 1 µM): -1%
C=CC(=O)Nc1cccc(-c2cnc3[nH]cc(C(=O)NC(C)(C)C)c3n2)c1 — inhibition (ABL1; kinase activity; 0.1 µM): 15% and 19%
O=c1c(-c2ccc(Cl)c(CN3CCOCC3)c2)coc2cc(O)ccc12 — remaining activity (ABL1; enzyme activity, inhibitor; 1 µM): 114%
Cc1cccc(O[C@H]2CCC[C@@H](C(C)CNCc3ccncc3)C2)c1 (relative stereo) — inhibition (ABL1; enzyme activity, inhibitor; 1 µM): -12%
COCC12C(=O)NC3C4(C(OC)CC1O)C1CC5(O)C(OC)C(O)C(OC(C)=O)(C1C5OC(=O)c1ccccc1)C3(O)C(OC)C24 (stereo not shown) — remaining activity (ABL1 (Homo sapiens, UniProt P00519, T315I); kinase activity, inhibitor, ProQinase kinase profiling; 25 µM; relative to: control): 115% and 121%
C=CC(=O)Oc1ccc(OC)c(-c2c[nH]c3ncc(-c4cncc(C(=O)N(C)C)c4)cc23)c1 — covalent adduct formation (ABL1; intact protein MS; 100 µM, 12 h, ABL kinase domain 10 µM): ~16%
O=C(Nc1ccc(Oc2ncnc3[nH]cc(-c4ccccc4)c23)c(F)c1)c1c2n(n(-c3cc(F)ccc3F)c1=O)CCCC2 — inhibition (ABL1; enzyme activity, inhibitor; 0.5 µM): 32%
[2H]c1cc(C)c(NC(=O)c2cnc(Nc3cc(N4CC[C@H](N)C4)nc(C)n3)s2)c(Cl)c1 — inhibition (ABL1; enzyme activity, inhibitor; 1 nM): 87%
O=C=[N][Ru-4]123([n]4c5ccc(O)cc5c5c6c(c7cc(F)c[n+]1c7c54)C(=O)NC6=O)[S+]1CC[S+]2CC[S+]3CC1 (stereo not shown) — remaining activity (ABL1; enzyme activity; 100 nM, human enzyme, with: 10 µM ATP; relative to: untreated): 101%
C=CC(=O)N1Cc2nc(-c3cc(-c4cc(Cl)cnc4Cl)c(F)cc3F)n(-c3ccncn3)c2C1 — inhibition (ABL1; cell-free assay, inhibitor; 1 µM): 10.1%
CNC(=O)C[C@H](Cc1ccc(C#N)cc1)NC(=O)c1cc(-c2ccc(CN[C@H](C)c3ccc(C)cc3)o2)ccc1Cl — activity vs control (ABL1; enzyme activity, inhibitor; 1 µM): 95%
COc1c(Cl)cccc1Nc1c(-c2ccncc2C#C[C@@]2(C)CCCN2C(=O)/C=C/CN(C)C)[nH]c2c1C(=O)NCC2 — remaining binding (Tyrosine-protein kinase ABL1, non-phosphorylated (ABL1, Homo sapiens, UniProt P00519); binding, competition with immobilised ligand; 3 µM): 24%
NC(=O)[C@@H](O)C[C@H]1CCc2sc3ncnc(O[C@H]4CC[C@H](N5CCOCC5)CC4)c3c21 — inhibition (ABL1; enzyme activity, inhibitor; 10 µM): 20%
COc1ccc(NC(=O)Nc2ccc3c(c2)C(=O)N(C(C)CO)CC(C)C(CN(C)Cc2ccc4c(c2)OCO4)O3)cc1 (stereo not shown) — remaining activity (ABL1 H396P; kinase activity; 0.03 µM; relative to: control): 104%
CN1CCN(Cc2ccc(-c3ccc(CO[C@H]4CCC[C@@H]4NC(=O)c4cc(-c5cnn(C)c5)cnc4N)cc3)cc2)CC1 — inhibition (ABL1; enzyme activity, inhibitor; 0.1 µM): -1%
C=CS(=O)(=O)Oc1ccc(OC)c(-c2c[nH]c3ncc(-c4cncc(C(=O)N(C)C)c4)cc23)c1 — kinact (ABL1; cell-free assay, inhibitor, mass spectrometry): 0.00066 s⁻¹
COc1cc(OC)c(F)c(/C=C/c2cnc3ccn(S(=O)(=O)c4cn(CCF)cn4)c3n2)c1F — inhibition (ABL1; 100 nM): 0%
CCN1CCN(Cc2ccc(NC(=O)c3ccc(C)c(NC(=O)c4cncc(-c5cccs5)c4)c3)cc2C(F)(F)F)CC1 — remaining binding (ABL1 H396P; binding, competition with immobilised ligand; 1 µM): 0.5%
CN1CCN(Cc2ccc(NC(=O)c3cccc(C#Cc4cnc(N)c5ncccc45)c3)cc2C(F)(F)F)CC1 — remaining binding (Tyrosine-protein kinase ABL1, phosphorylated (ABL1, Homo sapiens, UniProt P00519); cell-free assay, competition with immobilised ligand; 50 nM): 1.3%
